Experimental data collected from several papers.
Parts stem from different laboratories: compare values within a part only. Substitutions count along the parent as printed.

Series 1
Target: CCNB3, cyclin fold, Cln2 fusion (human)
Method: yeast growth competition, sequencing
Medium: yeast
Notes: strong parent motif
Reference: not given
Direction: higher = stronger binding
Measurement: normalised enrichment score
Starting sequence: E2F1 docking peptide (human); PPVKRRLDFETDH
PPVKRRLEFETDH [D8E]: 2.29
PPVKRYLDFETDH [R6Y]: 0.409
PPVKRRWDFETDH [L7W]: -0.141
PPSKRRLDFETDH [V3S]: 0.31
PPVKRRLDFETLH [D12L]: 3
PPVKRRIDFETDH [L7I]: 0.582
PPVSRRLDFETDH [K4S]: 1.35
PPVKRELDFETDH [R6E]: 0.0418
PPLKRRLDFETDH [V3L]: 1
PPVKRRLDDETDH [F9D]: -0.107
PPVKFRLDFETDH [R5F]: 0.233
PPVKRRLMFETDH [D8M]: 2.12
PPVKDRLDFETDH [R5D]: 0.0709
PPYKRRLDFETDH [V3Y]: 0.437
PPVKRRLDFMTDH [E10M]: 1.36
PPVKRRLDFEKDH [T11K]: 2.2
PHVKRRLDFETDH [P2H]: 2.53
PPVKRRLDFDTDH [E10D]: 3.32
PPVKRRLGFETDH [D8G]: 0.403

Series 2
Target: RNA binding protein fox-1 homolog 2, RRM domain, GST-SBP tag (RBFOX2, Homo sapiens, UniProt O43251-10, residues 100-194)
Method: RNA Bind-n-Seq
Molecule type: RNA
Medium: in vitro
Tested at: 365 nM
Notes: natural RNA segment, single round, ends assumed
Reference: no-protein control
Direction: higher = stronger binding
Measurement: RBNS enrichment (R)
Construct (chain): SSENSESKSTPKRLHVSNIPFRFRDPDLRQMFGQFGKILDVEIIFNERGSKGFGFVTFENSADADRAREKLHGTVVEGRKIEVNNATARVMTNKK
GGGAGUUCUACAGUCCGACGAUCAAUUCAUCACAUAAUCUUAAAUUGGAACUUUGCACGGUUCUUAGUCCAAGUGUGCUCUCCUUUCAUACAGUUUCCAUGGUGUGAGUGCUUUACUGAAGAUCUGUUUCUUUUGGAAUUCUCGGGUGCCAA: 0.529
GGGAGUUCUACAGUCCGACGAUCCUCCAUCACAGAUGUCUGGAUGCUUUUGGAAAUGGCCUUGGCUAAAGUAAAAGGGAAAAGUAGAUCCGAUAACUUAAAAACGUAGCUCAUCCCUUACCAUCCAAGGGGCAUGGAAUUCUCGGGUGCCAA: 0.483
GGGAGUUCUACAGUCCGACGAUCUCCUGUCAUUUUCAUGUGGCUUGAGCUCUGAGACGUGCGGAUGAGGCUGGACAACUACUACCCAUACAAUUAGGGGGUCAAAAUAACUUUAAAUAAAUAGCAUCGGACUUUGGAAUUCUCGGGUGCCAA: 0.685
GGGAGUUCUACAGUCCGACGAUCCACAUUUUACCACGCGGCCAUACUUGCAGAAUGCAGACCCUAGUGGGCUGUACUGUAUGCACUUUGAUGAAGACGUGAAAAGAAUCUGUUGUACUUUUUAUUCAAUCUGUUGGAAUUCUCGGGUGCCAA: 0.274
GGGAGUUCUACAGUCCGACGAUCCCCCUAAAGGCUGAUCCAACUGCUUCUGUGGUUCCACGGUAUUUUUCAUGGUUCAUGUGAAACGUGAUAUCACUGGGCUGCCAAAGCACAAAUGAGUCAGUAUUCUUGGGUGGAAUUCUCGGGUGCCAA: 0.327
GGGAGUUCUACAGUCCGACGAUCCAUCCAAGGAGAGGGCCAGGAAAACAUCCACCAUCAAAUGGUUUUCCAGCUCCCUCAUCUCUUCAAAAUUGAGUUCUUGGGAGAACAAAAGGUAUGUAUCCUGCAGUAGUUGGAAUUCUCGGGUGCCAA: 0.287
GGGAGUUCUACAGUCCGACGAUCGUUUUGUAGAAGAAAAAUUAUUGUGUUUAGGGGUAUAAUAUUAUAUGUUUUCAUAUUAUGAAAUGAAUUUGUAUUUAAACAAAAAUUUAAAUUUUGGAAUCCUCUAAACAUGGAAUUCUCGGGUGCCAA: 1.11
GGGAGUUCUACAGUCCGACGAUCCUCCUCCUAUCUGGCUUGUGCUCCUCAGGUGGCUGAAGGGGCCACCUUAGUUCUCAUAGAAAUUGUGGACCAAUAGGAUAUGUGCUGUGUAUAACUUUCUUUUUAAACUGUGGAAUUCUCGGGUGCCAA: 0.506
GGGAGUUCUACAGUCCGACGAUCCUCCAGGAGAGAGCGCUCCAGGUACUCUACCGACUGAGACAGGUCCCAAGCCCUAACAGGCCUUCACUCUCUUGAUAGUCUUUCCUUUACAGUCAAGGACUACGUUAAAGUGGAAUUCUCGGGUGCCAA: 0.245
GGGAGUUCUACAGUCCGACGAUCAUCAGAAUGCCUGUUUGUGGUUUCAUAUGCAAUAAUAUAUUUUUUUAAAAAUGUGGACUUCAUAGGAAGGCGUGAGUACAAUUAGUAUAAUGCAUAACUCAUUGUUGUCCUGGAAUUCUCGGGUGCCAA: 0.546
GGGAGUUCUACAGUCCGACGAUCUAACUUCUGUUACUCCUUUGGCCCAUAGCUAAGGUCAUCCUUCCCCACAGGGGUGGCUUUGGGAUUGGAUGAUACAGCUUUUGCUUCUGUGUAGUAUACCUGUACAUACUUGGAAUUCUCGGGUGCCAA: 0.698
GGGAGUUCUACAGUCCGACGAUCUAAGGAGGACAACUAUGAGGUAAAGCCAUCCCCAGACUGACAGCUCUGCCUUUAUCUUGCCUCUGGCCUUAUAUUUCAUACUUUGUUCAAUAUGGCUGGAUAAUAAACACUGGAAUUCUCGGGUGCCAA: 0.267

Series 3
Target: Prothrombin, mature alpha-thrombin (F2, Homo sapiens, UniProt P00734)
Method: aptamer microarray, sandwich
Molecule type: DNA with 2'F-ANA
Medium: in vitro
Tested at: 200 nM
Notes: whole 15-mer aptamer, many near background
With: Cy3 exosite-II aptamer, 400 nM
Direction: higher = stronger binding
Measurement: mean fluorescence intensity
Oligonucleotide: GGTTGGTGTGGTTGG
2'F-ANA at 1 13 14: 54.2 a.u.
2'F-ANA at 3 6 10 11: 475 a.u.
2'F-ANA at 1 5 7 9 10 11: 57.5 a.u.
2'F-ANA at 3 4 7 8 11 12 14: 399 a.u.
2'F-ANA at 2 3 4 6 7 9 13 14 15: 179 a.u.
2'F-ANA at 1 3 5 8 9 10 11 12 13 14 15: 95.1 a.u.
2'F-ANA at 2 3 5 7 8 9 10 11 12: 77.7 a.u.
2'F-ANA at 3 5 6 7 9 11 12 13 14: 54.1 a.u.
2'F-ANA at 2 6 7 8 11 12 13 14 15: 150 a.u.
2'F-ANA at 1 2 4 12 13: 210 a.u.
2'F-ANA at 1 2 3 6 7 8 12: 492 a.u.
2'F-ANA at 1 2 3 4 5 7 11 13 14 15: 48.9 a.u.
2'F-ANA at 4 5 6 7 8 9 10 12 14 15: 80.9 a.u.
2'F-ANA at 5 6 8 9 10 11 12 13: 91.2 a.u.
2'F-ANA at 4 8 9 14: 93.7 a.u.
2'F-ANA at 1 3 6 7 8 9 10 12 14 15: 66 a.u.
2'F-ANA at 4 6 7 9 10 13: 64.6 a.u.
2'F-ANA at 1 6 9 11 12 13 14: 62.5 a.u.

Further values, each from its own experiment
PhoQ, residues 284 288 289 292 302 303 SLANIV
fold induction (PhoP, residues 12 14 15 18 19 TQCLL (Escherichia coli, UniProt P23836); Sort-seq, measured: YFP reporter; E. coli; PhoQ-PhoP variant library, with: 10 µM Mg2+; reference: high Mg2+ state, higher = stronger signaling): 9.55

A few entries again (series 1):
PHVKRRLDFETDH [P2H]: 2.53
PPVKRRLDDETDH [F9D]: -0.107
PPLKRRLDFETDH [V3L]: 1
PPVKRELDFETDH [R6E]: 0.0418
